# Measured values pooled from the literature.
# Compare with care: the assays were run in different laboratories.
Molecule,tested on,assay,system,conditions,scale,endpoint,result
Nc1ncnc2c([C@@H]3N[C@H](CO)[C@@H](O)[C@H]3O)c[nH]c12,Zaire ebolavirus,antibody staining,human macrophages,1.6 µM,,antigen-positive cells,52.2%
Cn1cnc(Cn2c(=O)[nH]/c(=N\c3cc4cn(C)nc4cc3Cl)n(Cc3cc(F)c(F)cc3F)c2=O)n1,,,"human, mild renal impairment, plasma","oral, 375 mg single dose",,AUC(0-inf),1430 µg·h/mL
VWHVNNATNKATYKP,human CD4 T cells,AIM,peptide,,,responding donors,8%
CC[C@H](C)[C@H](NC(=O)[C@H](CC(C)C)NC(=O)[C@H](Cc1c[nH]c2ccccc12)NC(=O)[C@H](CCC(N)=O)NC(=O)[C@@H](NC(=O)[C@H](Cc1ccccc1)NC(=O)[C@H](C)NC(=O)[C@H](CCCCNC(=O)COCCOCCNC(=O)COCCOCCNC(=O)CC[C@H](NC(=O)CCCCCCCCCCCCCCCCCCC(=O)O)C(=O)O)NC(=O)[C@H](CCC(N)=O)NC(=O)[C@H](C)NC(=O)[C@@H](NC(=O)[C@H](CCCCN)NC(=O)[C@H](CC(=O)O)NC(=O)[C@H](CC(C)C)NC(=O)C(C)(C)NC(=O)[C@@H](NC(=O)[C@H](CO)NC(=O)[C@H](Cc1ccc(O)cc1)NC(=O)[C@H](CC(=O)O)NC(=O)[C@H](CO)NC(=O)[C@@H](NC(=O)[C@H](Cc1ccccc1)NC(=O)[C@@H](NC(=O)CNC(=O)[C@H](CCC(=O)O)NC(=O)C(C)(C)NC(=O)[C@@H](N)Cc1ccc(O)cc1)[C@@H](C)O)[C@@H](C)O)[C@@H](C)CC)[C@@H](C)CC)C(C)C)C(=O)N[C@@H](C)C(=O)NCC(=O)NCC(=O)N1CCC[C@H]1C(=O)N[C@@H](CO)C(=O)N[C@@H](CO)C(=O)NCC(=O)N[C@@H](C)C(=O)N1CCC[C@H]1C(=O)N1CCC[C@H]1C(=O)N1CCC[C@H]1C(=O)N[C@@H](CO)C(N)=O,,,healthy human,"0.25 mg, single ascending dose",,serious adverse events,0%
RVYSTGSNV,,AIM,"peptide, CD8+ T cells from PBMC, human donors","HLA-A*30:01 restricted, unit not given",baseline: positive over tested donors,frequency of responding donors,33
[H]/N=C(/N)c1ccc(NCc2nc3cc(C(=O)N(CCC(=O)O)c4ccccn4)ccc3n2C)cc1,"Replicase polyprotein 1ab, main protease (rep, Severe acute respiratory syndrome coronavirus 2, UniProt P0DTD1)","reporter gene (mKate2), inhibitor",,20 µM,,inhibition,-0.698%
